Measurements pooled from the literature.
Numbered parts are unrelated; each lists some results of a single study.
UniProt Q96D53, sequence (whole entry, looked up): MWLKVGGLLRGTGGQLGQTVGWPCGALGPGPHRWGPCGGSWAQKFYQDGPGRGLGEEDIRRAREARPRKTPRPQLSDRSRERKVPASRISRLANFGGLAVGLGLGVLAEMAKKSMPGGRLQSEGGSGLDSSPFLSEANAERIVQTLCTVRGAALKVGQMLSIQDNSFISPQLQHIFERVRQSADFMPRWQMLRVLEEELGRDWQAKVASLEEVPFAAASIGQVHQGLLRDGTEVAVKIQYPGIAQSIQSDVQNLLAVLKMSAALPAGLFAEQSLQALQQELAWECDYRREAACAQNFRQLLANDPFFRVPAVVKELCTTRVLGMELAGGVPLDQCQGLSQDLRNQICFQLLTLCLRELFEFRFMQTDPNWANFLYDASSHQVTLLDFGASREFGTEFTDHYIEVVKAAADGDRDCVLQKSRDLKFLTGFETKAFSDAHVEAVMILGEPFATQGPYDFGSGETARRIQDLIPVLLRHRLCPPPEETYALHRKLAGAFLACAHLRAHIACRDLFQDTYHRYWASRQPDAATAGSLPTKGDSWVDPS
UniProt P36894, sequence (whole entry, looked up): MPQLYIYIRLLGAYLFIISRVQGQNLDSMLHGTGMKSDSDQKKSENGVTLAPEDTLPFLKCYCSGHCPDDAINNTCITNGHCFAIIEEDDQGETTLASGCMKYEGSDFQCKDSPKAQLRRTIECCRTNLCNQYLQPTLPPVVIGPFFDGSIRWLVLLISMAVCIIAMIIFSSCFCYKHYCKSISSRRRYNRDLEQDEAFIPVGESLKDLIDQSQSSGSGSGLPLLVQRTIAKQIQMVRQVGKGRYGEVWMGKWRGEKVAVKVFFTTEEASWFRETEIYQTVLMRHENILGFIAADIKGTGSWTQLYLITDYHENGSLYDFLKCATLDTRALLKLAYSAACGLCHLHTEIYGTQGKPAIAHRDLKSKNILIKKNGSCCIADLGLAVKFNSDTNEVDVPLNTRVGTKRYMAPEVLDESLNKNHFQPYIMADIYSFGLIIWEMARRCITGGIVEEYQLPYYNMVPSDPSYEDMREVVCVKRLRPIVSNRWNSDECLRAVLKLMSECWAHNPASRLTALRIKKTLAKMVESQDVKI
UniProt Q96SB4, sequence (whole entry, looked up): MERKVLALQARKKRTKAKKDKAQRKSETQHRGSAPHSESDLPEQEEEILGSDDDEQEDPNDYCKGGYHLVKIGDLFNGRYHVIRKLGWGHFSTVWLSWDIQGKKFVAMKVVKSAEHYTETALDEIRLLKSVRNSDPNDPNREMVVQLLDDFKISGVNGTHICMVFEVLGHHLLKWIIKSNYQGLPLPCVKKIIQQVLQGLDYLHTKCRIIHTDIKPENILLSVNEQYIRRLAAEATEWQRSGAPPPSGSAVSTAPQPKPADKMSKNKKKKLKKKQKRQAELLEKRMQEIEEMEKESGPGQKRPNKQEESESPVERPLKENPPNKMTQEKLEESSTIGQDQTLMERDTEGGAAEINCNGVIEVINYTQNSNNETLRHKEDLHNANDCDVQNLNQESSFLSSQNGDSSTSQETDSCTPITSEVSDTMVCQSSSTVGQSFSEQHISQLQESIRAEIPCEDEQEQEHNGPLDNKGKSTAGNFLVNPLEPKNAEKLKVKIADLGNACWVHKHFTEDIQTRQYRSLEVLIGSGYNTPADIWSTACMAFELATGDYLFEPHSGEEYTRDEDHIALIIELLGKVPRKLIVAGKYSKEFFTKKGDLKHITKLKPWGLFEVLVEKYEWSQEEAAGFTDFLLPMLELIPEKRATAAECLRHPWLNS
UniProt P31152, sequence (whole entry, looked up): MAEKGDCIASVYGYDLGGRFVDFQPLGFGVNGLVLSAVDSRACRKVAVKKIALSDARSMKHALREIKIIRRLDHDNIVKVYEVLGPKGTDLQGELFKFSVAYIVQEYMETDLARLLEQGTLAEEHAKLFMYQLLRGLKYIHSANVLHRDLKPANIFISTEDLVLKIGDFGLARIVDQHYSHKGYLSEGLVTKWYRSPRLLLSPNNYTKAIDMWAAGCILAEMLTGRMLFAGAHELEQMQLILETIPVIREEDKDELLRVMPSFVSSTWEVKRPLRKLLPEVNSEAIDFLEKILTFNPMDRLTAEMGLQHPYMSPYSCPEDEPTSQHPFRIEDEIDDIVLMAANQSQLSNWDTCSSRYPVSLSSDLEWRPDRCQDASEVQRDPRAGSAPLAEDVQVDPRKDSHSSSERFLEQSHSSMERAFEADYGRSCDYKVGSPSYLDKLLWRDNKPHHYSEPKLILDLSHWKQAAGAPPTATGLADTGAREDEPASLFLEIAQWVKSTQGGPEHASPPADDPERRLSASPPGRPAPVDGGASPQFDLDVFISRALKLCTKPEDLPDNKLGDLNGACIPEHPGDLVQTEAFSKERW
UniProt Q9UHD2, sequence (whole entry, looked up): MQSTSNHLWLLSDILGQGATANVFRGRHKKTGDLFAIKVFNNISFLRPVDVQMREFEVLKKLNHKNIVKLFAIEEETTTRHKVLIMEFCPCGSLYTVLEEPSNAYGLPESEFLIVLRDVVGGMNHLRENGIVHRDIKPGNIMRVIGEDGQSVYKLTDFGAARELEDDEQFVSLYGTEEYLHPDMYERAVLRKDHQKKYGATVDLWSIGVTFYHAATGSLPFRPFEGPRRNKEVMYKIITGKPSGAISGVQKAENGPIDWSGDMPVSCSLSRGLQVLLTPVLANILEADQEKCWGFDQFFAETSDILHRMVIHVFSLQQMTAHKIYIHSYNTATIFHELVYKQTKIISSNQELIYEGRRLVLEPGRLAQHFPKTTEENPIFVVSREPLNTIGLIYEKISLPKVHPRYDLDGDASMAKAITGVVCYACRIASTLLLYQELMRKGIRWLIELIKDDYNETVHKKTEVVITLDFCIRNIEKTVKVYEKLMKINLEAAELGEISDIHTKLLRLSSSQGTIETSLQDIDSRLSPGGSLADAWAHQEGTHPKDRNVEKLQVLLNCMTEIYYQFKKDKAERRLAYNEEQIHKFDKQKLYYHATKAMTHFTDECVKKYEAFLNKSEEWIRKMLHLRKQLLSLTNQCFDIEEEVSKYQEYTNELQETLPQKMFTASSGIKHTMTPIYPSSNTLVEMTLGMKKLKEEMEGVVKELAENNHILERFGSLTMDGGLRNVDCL
UniProt Q15349, sequence (whole entry, looked up): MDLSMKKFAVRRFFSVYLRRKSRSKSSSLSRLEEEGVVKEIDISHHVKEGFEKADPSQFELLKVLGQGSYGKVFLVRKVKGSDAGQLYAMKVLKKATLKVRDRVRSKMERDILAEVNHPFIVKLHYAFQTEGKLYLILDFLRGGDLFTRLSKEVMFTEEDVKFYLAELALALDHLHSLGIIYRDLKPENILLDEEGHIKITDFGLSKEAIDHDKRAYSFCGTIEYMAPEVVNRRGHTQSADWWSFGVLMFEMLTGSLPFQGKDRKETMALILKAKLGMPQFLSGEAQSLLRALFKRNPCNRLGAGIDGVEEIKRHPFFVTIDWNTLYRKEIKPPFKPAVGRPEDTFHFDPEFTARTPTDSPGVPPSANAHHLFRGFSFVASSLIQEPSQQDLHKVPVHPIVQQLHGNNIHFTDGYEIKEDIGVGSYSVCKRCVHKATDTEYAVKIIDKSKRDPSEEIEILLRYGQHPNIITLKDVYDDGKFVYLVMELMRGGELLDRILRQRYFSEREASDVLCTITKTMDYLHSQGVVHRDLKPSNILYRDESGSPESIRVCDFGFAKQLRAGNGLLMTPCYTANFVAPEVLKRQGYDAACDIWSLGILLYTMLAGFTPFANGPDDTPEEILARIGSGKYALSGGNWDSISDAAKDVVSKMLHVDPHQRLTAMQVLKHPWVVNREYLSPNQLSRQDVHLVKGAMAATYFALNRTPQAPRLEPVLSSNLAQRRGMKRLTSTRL
UniProt P51955, sequence (whole entry, looked up): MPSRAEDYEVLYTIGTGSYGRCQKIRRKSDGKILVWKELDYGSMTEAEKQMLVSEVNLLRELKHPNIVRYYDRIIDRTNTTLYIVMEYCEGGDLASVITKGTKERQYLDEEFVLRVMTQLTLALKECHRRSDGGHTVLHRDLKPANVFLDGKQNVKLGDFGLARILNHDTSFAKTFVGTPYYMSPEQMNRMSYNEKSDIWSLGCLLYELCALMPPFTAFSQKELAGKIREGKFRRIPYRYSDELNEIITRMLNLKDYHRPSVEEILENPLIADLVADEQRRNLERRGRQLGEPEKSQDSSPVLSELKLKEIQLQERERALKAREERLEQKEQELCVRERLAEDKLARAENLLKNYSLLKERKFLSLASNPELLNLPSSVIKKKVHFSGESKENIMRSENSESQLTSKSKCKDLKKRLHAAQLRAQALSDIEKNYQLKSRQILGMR

Set 1 — effect on: cell-free assay; method: competition with immobilised ligand; tested at: 1 µM; measurement: remaining binding
Compound: CCC(=O)N[C@H]1CC[C@@H](C(=O)N(C)c2ccc(-c3nc4ccccc4o3)cc2)C1
target = NEK5 (Homo sapiens, UniProt Q6P3R8); result = 100%
target = TGFBR1 (Homo sapiens, UniProt P36897); result = 100%
target = COQ8B (Homo sapiens, UniProt Q96D53); result = 74%
target = CSNK1A1L (Homo sapiens, UniProt Q8N752); result = 100%
target = STK36 (Homo sapiens, UniProt Q9NRP7); result = 100%
target = TBK1 (Homo sapiens, UniProt Q9UHD2); result = 78%
target = Ribosomal protein S6 kinase alpha-2, N-terminal kinase domain (RPS6KA2, Homo sapiens, UniProt Q15349); result = 99%
target = HIPK2 (Homo sapiens, UniProt Q9H2X6); result = 79%
target = SRPK1 (Homo sapiens, UniProt Q96SB4); result = 100%
target = VRK2 (Homo sapiens, UniProt Q86Y07); result = 90%
target = SRPK2 (Homo sapiens, UniProt P78362); result = 61%
target = NEK2 (Homo sapiens, UniProt P51955); result = 100%
target = BMPR1A (Homo sapiens, UniProt P36894); result = 88%
target = MAPK4 (Homo sapiens, UniProt P31152); result = 100%
target = CDKL5 (Homo sapiens, UniProt O76039); result = 82%

Set 2 — method: phase 2a trial; host: idiopathic pulmonary fibrosis patients; measurement: patients with haematuria
SMILES: CC(C)n1cnc(-c2ccc(F)cc2)c1-c1ncc(C(=O)Nc2ccc(N3CCN(C)CC3)cc2)[nH]1
conditions = 30 mg once daily, grade 3 emergent event; result = 0%
conditions = 60 mg once daily, grade 4 emergent event; result = 0%
conditions = all arms pooled, grade 4 emergent event; result = 0%
conditions = 30 mg once daily, grade 5 emergent event; result = 0%
conditions = 60 mg once daily, grade 5 emergent event; result = 0%
conditions = 60 mg once daily, grade 2 emergent event; result = 0%

Set 3 — effect on: enzyme activity; action: inhibitor; tested at: 0.5 µM; relative to: control; measurement: remaining activity
Target: Tyrosine-protein kinase HCK (HCK, Homo sapiens, UniProt P08631)
UniProt P08631, sequence (whole entry, looked up): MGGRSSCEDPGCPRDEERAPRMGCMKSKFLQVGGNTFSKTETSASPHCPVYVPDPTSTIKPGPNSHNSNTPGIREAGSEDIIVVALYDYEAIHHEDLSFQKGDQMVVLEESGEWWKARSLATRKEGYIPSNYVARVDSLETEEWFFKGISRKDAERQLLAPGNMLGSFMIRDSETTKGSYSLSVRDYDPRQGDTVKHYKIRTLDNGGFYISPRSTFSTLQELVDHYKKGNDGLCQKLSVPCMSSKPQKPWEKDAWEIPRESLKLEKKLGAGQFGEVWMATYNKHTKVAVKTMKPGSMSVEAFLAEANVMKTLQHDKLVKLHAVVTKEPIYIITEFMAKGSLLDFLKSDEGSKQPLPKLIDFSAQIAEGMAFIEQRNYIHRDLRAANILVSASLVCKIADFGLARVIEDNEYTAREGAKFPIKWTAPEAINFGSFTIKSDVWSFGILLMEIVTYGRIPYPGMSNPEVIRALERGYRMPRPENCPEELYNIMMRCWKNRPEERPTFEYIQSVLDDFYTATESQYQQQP
SMILES = C[C@@H]1CCN(C(=O)CC#N)C[C@@H]1N(C)c1ncnc2[nH]ccc12; result = 88.3%
SMILES = Cc1cc2ncc(-c3ccccc3)nc2cc1C; result = 90.1%
SMILES = O=C1C(Cl)=C(N2C(=O)CCC2=O)C(=O)c2ccccc21; result = 94.2%
SMILES = COc1cc2ncnc(Nc3ccc(O)c(Br)c3)c2cc1OC; result = 52.2%
SMILES = O=C(NC(NC(=S)Nc1ccc(F)c([N+](=O)[O-])c1)C(Cl)(Cl)Cl)C(c1ccccc1)c1ccccc1 (stereo not shown); result = 107%
SMILES = N#C/C(=C\c1ccc(O)c(O)c1)C(=O)NCc1ccccc1; result = 97.5%
SMILES = CN(C)C[C@H]1CCn2c(c(C3=C(c4cn(C)c5ccccc45)C(=O)NC3=O)c3ccccc32)C1; result = 95.3%
SMILES = Cc1nc2cc3nc(-c4cccs4)cnc3cc2n1C; result = 98%
SMILES = N#Cc1c(NC(=O)c2cccc3ccccc23)sc2c1CCCC2; result = 96.5%
SMILES = CCN(CC)CCNC(=O)c1c(C)[nH]c(/C=C2\C(=O)Nc3ccc(F)cc32)c1C; result = 40%
SMILES = CN([C@@H](Cc1ccc(OS(=O)(=O)c2cccc3cnccc23)cc1)C(=O)N1CCN(c2ccccc2)CC1)S(=O)(=O)c1cccc2cnccc12; result = 97.4%
SMILES = CCOc1nc(NC(=O)Cc2cc(OC)ccc2OC)cc(N)c1C#N; result = 98.5%
SMILES = CCN(CC)CCNC(=O)c1c(C)[nH]c(/C=C2\C(=O)Nc3ccc(Cl)cc32)c1C; result = 34.3%
SMILES = Ic1cccc(CSc2nnc(-c3ccncc3)o2)c1; result = 104%
SMILES = CCN(CC)C(=O)c1ccc(Nc2nc(OCC3CCCCC3)c3[nH]cnc3n2)cc1; result = 63.1%
SMILES = Cn1nc2c3c(cccc31)C(=O)c1ccccc1-2; result = 94.6%
SMILES = COc1cc2ncnc(Nc3cccc(Cl)c3)c2cc1OC; result = 61.8%
SMILES = Cc1cn(-c2cc(NC(=O)c3ccc(C)c(Nc4nccc(-c5cccnc5)n4)c3)cc(C(F)(F)F)c2)cn1; result = 46.6%
SMILES = COc1cc2c(cc1OC)-c1[nH]nc(Nc3cccc(F)c3)c1C2; result = 61.9%
SMILES = O=C1c2ccccc2-c2n[nH]c3cccc1c23; result = 87.3%
SMILES = O=c1cc(-c2cccc3c2Sc2ccccc2S3)oc(N2CCOCC2)c1; result = 102%
SMILES = c1ccc(-c2[nH]ncc2-c2ccnc3ccccc23)nc1; result = 98.5%
SMILES = Nc1cccc(-c2cc3c(Oc4cccc(O)c4)ncnc3[nH]2)c1; result = 6.65%
SMILES = c1ccc(-c2cnc(Nc3ccc(OCCN4CCCC4)cc3)s2)cc1; result = 98.6%

Set 4 — cell line: Huh-7; tested at: 10 µM; time: 24 h; measurement: viability
SMILES = CCOC(=O)c1ccc(O)cc1; result = 101%
SMILES = Cc1ccccc1N1C(=O)c2cc(S(N)(=O)=O)c(Cl)cc2NC1C (stereo not shown); result = 95.8%
SMILES = Nc1c2ccccc2nc2ccccc12; result = 63.4%
SMILES = NC(=O)OCC(COC(N)=O)c1ccccc1; result = 101%
SMILES = CCN(CC)CCNc1ccc(CO)c2sc3ccccc3c(=O)c12; result = 71.9%
SMILES = CN(C)CC/C=C1/c2ccccc2Sc2ccc(Cl)cc21; result = 95.8%
SMILES = Cc1ccc(/C(=C\CN2CCCC2)c2ccccn2)cc1; result = 99%
